# Measurements collected from several papers.
# Parts stem from different laboratories: compare values within a part only. Several values in a cell are separate wells, animals, samples, runs or records.
# UniProt Q6ZWH5, sequence (whole entry, looked up): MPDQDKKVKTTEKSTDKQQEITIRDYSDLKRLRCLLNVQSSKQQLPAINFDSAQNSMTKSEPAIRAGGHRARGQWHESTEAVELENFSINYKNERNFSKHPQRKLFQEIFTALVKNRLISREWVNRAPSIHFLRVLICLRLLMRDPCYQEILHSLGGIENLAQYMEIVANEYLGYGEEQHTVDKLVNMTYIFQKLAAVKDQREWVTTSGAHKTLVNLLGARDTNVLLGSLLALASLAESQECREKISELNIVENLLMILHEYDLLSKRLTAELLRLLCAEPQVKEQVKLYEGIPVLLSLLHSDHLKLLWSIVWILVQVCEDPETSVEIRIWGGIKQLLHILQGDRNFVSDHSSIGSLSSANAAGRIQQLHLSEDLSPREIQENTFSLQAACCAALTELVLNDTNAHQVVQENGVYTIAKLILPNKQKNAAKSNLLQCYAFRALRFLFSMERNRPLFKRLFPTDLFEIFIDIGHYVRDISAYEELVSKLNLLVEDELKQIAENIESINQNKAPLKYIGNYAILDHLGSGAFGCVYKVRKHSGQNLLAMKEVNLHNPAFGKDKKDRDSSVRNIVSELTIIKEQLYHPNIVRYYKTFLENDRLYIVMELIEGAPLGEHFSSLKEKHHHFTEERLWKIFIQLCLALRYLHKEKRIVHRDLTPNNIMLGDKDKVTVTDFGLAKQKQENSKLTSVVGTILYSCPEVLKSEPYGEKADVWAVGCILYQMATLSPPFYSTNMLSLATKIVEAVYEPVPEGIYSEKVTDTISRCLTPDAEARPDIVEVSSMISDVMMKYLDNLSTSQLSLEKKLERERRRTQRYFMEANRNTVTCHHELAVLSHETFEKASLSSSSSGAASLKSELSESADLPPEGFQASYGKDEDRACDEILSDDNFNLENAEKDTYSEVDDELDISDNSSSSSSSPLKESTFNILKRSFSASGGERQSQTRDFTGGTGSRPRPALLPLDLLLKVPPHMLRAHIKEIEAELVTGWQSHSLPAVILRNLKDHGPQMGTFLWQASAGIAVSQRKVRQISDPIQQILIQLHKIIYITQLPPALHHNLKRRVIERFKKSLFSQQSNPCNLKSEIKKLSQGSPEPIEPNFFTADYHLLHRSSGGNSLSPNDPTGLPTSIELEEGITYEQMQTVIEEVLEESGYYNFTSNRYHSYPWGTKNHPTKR
# UniProt P46734, sequence (whole entry, looked up): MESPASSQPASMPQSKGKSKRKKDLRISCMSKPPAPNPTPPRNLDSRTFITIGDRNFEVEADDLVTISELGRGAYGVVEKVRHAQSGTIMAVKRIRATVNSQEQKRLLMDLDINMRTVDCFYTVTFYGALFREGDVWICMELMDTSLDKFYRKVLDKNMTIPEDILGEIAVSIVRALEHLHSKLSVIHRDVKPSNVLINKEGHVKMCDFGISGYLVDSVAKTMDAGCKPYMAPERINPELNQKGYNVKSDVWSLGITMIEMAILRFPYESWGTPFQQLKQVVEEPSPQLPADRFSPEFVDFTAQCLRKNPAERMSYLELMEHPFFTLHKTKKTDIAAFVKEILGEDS
# UniProt Q00535, sequence (whole entry, looked up): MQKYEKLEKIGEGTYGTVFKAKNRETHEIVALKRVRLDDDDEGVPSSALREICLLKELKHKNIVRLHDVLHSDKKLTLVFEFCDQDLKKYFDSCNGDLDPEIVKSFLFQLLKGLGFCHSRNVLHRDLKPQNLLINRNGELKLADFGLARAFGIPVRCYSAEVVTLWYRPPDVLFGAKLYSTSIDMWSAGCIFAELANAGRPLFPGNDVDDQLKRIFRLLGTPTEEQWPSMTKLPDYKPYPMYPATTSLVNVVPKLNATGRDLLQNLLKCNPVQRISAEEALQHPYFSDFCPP
# UniProt Q8TDC3, sequence (whole entry, looked up): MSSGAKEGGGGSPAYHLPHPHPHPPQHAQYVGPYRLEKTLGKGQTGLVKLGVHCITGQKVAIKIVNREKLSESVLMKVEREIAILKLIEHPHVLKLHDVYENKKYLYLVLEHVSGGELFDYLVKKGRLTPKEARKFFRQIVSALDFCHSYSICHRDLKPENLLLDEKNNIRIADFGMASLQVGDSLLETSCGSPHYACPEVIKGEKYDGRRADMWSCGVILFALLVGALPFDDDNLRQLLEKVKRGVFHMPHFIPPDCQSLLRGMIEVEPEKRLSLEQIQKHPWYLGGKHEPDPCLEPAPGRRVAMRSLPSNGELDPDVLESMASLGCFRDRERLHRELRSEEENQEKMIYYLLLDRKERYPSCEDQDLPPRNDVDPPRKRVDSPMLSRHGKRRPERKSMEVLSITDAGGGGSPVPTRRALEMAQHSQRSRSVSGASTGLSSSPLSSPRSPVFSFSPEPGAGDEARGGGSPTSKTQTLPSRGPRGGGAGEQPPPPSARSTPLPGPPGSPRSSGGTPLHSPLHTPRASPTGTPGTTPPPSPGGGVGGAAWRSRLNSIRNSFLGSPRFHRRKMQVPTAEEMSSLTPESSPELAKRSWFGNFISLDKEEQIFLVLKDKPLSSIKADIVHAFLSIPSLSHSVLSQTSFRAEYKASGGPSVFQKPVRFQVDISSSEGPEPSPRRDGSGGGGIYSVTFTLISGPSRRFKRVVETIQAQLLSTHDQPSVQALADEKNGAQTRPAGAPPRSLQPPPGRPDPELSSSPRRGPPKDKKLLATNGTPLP
# UniProt Q92918, sequence (whole entry, looked up): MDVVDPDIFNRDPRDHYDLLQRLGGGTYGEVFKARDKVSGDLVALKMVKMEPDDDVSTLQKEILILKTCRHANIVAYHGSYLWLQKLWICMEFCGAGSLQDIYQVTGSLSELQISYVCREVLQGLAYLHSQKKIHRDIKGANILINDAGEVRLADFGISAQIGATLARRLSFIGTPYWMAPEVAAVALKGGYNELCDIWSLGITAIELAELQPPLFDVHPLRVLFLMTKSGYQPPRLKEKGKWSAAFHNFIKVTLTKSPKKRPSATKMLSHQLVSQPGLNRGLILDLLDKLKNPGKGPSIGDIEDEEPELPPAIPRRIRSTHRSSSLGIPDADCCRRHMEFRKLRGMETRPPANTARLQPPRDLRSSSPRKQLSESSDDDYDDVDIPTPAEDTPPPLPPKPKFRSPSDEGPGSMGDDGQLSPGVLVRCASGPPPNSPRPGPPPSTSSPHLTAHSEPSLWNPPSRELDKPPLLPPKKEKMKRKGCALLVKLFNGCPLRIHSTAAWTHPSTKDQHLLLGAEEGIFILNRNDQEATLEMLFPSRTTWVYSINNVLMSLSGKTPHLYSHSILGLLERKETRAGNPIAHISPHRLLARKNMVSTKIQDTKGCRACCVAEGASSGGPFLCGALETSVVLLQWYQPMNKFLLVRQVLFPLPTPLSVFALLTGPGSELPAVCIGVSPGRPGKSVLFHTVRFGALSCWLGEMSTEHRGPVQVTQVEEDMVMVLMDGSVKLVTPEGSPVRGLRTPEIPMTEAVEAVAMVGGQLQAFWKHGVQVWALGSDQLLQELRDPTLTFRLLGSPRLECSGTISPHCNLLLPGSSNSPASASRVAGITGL

# Block 1
# SMILES: CN(C1COC1)C(C)(C)/C=C(\C#N)C(=O)N1CCC[C@H]1Cn1nc(-c2ccc(Oc3ccccc3)cc2F)c2c(N)ncnc21
# Observed: kinase activity
target,tested at,inhibition [%]
"CAMK2B (Homo sapiens, UniProt Q13554)",0.1 µM,-3
"TNIK (Homo sapiens, UniProt Q9UKE5)",1 µM,1
"CDK5 (Homo sapiens, UniProt Q00535)",0.1 µM,1
"EPHA2 (Homo sapiens, UniProt P29317)",1 µM,1
"PAK4 (Homo sapiens, UniProt O96013)",0.1 µM,-2
"Insulin receptor (INSR, Homo sapiens, UniProt P06213)",1 µM,-2
"PTK2 (Homo sapiens, UniProt Q05397)",0.1 µM,5
"BMX (Homo sapiens, UniProt P51813)",1 µM,98
"CDK2 (Homo sapiens, UniProt P24941)",1 µM,5
"STK16 (Homo sapiens, UniProt O75716)",0.1 µM,16
"EPHB2 (Homo sapiens, UniProt P29323)",1 µM,1
"EPHA1 (Homo sapiens, UniProt P21709)",1 µM,7
"DYRK4 (Homo sapiens, UniProt Q9NR20)",0.1 µM,4
"AXL (Homo sapiens, UniProt P30530)",1 µM,2
"PRKCZ (Homo sapiens, UniProt Q05513)",1 µM,-2
"GRK7 (Homo sapiens, UniProt Q8WTQ7)",0.1 µM,7
"EPHA3 (Homo sapiens, UniProt P29320)",1 µM,-3

# Block 2
# Compound: COc1cc(-c2nc3ccc(C(=O)NCCCN4CCN(c5cccc(C)c5C)CC4)cc3n2C2CCC2)cc(OC)c1OC
target,observed,technique,tested at,remaining binding [%]
"MUSK (Homo sapiens, UniProt O15146)",binding,competition with immobilised ligand,1 µM,92
"CRK2 (Plasmodium falciparum, UniProt P61075)",binding,competition with immobilised ligand,1 µM,87
"MAPK4 (Homo sapiens, UniProt P31152)",binding,competition with immobilised ligand,1 µM,100
"RET (Homo sapiens, UniProt P07949, V804M)",binding,competition with immobilised ligand,1 µM,98
"SRPK2 (Homo sapiens, UniProt P78362)",binding,competition with immobilised ligand,1 µM,80
"FLT3 (Homo sapiens, UniProt P36888)",binding,competition with immobilised ligand,1 µM,98
"NEK10 (Homo sapiens, UniProt Q6ZWH5)",binding,competition with immobilised ligand,1 µM,93
"CDK9 (Homo sapiens, UniProt P50750)",binding,competition with immobilised ligand,1 µM,100
"PRKX (Homo sapiens, UniProt P51817)",binding,competition with immobilised ligand,1 µM,89
"ERBB3 (Homo sapiens, UniProt P21860)",,KINOMEscan,1000 nM,80
"SRPK1 (Homo sapiens, UniProt Q96SB4)",binding,competition with immobilised ligand,1 µM,100
"IGF1R (Homo sapiens, UniProt P08069)",binding,competition with immobilised ligand,1 µM,77
"MAPK7 (Homo sapiens, UniProt Q13164)",binding,competition with immobilised ligand,1 µM,100
"MAP2K3 (Homo sapiens, UniProt P46734)",binding,competition with immobilised ligand,1 µM,88
"MAP4K1 (Homo sapiens, UniProt Q92918)",binding,competition with immobilised ligand,1 µM,92
"RIPK2 (Homo sapiens, UniProt O43353)",binding,competition with immobilised ligand,1 µM,54
"PAK2 (Homo sapiens, UniProt Q13177)",binding,competition with immobilised ligand,1 µM,100
"BRSK1 (Homo sapiens, UniProt Q8TDC3)",binding,competition with immobilised ligand,1 µM,100

# Block 3
# SMILES: Cc1ncsc1-c1ccc(C(CO)NC(=O)C2CC(O)CN2C(=O)C(C(C)C)n2cc(-c3ccc(COc4c(-c5c(C)c(F)cc6[nH]ncc56)c(C5CC5)cc5c(N6CC7CC6CN7)nc(OC6CCOCC6)nc45)cc3)nn2)cc1 (stereo not drawn)
# VHL with Elongin B/C: von Hippel-Lindau disease tumor suppressor, with Elongin B/C (VHL, Homo sapiens, UniProt P40337)
# KRAS G12D GDP-bound: GTPase KRas, GDP-bound (KRAS, Homo sapiens, UniProt P01116, G12D)
target,technique,medium,setting,with,koff
VHL with Elongin B/C,"SPR, single-cycle",immobilized VCB complex,"binary, geometric mean",,0.00205 s⁻¹
"KRAS/VHL, GDP-bound (Homo sapiens, UniProt P01116+P40337, G12D)","SPR, single-cycle",immobilized KRAS G12D,"ternary, geometric mean",VCB complex,0.000437 s⁻¹
VHL with Elongin B/C,"SPR, single-cycle",immobilized VCB complex,binary,,0.00223 s⁻¹ and 0.00211 s⁻¹ and 0.00182 s⁻¹
KRAS G12D GDP-bound,"SPR, single-cycle",immobilized KRAS G12D,"binary, geometric mean",,0.00343 s⁻¹
KRAS G12D GDP-bound,"SPR, multi-cycle",immobilized KRAS G12D,"binary, geometric mean",,0.00339 s⁻¹

# Block 4
# SMILES: C[C@@H]1CN(c2ccc(-c3cc(C(=O)NCCOCCOCCOCCOCCNC(=O)Cn4cc(-c5[nH]cc(C(=O)N[C@@H](CC(N)=O)c6ccc(F)c(Cl)c6)c5-c5ccc(Cl)cc5F)cn4)ccc3F)cc2NC(=O)c2c[nH]c(=O)cc2C(F)(F)F)C[C@H](C)N1C
# Observed: thermal unfolding
# Technique: differential scanning fluorimetry
# Tested at: 5.5 µM
# Reading: higher = more unfolded
# DCAF1: DDB1- and CUL4-associated factor 1 (DCAF1, Homo sapiens, UniProt Q9Y4B6)
# UniProt Q9Y4B6, sequence (whole entry, looked up): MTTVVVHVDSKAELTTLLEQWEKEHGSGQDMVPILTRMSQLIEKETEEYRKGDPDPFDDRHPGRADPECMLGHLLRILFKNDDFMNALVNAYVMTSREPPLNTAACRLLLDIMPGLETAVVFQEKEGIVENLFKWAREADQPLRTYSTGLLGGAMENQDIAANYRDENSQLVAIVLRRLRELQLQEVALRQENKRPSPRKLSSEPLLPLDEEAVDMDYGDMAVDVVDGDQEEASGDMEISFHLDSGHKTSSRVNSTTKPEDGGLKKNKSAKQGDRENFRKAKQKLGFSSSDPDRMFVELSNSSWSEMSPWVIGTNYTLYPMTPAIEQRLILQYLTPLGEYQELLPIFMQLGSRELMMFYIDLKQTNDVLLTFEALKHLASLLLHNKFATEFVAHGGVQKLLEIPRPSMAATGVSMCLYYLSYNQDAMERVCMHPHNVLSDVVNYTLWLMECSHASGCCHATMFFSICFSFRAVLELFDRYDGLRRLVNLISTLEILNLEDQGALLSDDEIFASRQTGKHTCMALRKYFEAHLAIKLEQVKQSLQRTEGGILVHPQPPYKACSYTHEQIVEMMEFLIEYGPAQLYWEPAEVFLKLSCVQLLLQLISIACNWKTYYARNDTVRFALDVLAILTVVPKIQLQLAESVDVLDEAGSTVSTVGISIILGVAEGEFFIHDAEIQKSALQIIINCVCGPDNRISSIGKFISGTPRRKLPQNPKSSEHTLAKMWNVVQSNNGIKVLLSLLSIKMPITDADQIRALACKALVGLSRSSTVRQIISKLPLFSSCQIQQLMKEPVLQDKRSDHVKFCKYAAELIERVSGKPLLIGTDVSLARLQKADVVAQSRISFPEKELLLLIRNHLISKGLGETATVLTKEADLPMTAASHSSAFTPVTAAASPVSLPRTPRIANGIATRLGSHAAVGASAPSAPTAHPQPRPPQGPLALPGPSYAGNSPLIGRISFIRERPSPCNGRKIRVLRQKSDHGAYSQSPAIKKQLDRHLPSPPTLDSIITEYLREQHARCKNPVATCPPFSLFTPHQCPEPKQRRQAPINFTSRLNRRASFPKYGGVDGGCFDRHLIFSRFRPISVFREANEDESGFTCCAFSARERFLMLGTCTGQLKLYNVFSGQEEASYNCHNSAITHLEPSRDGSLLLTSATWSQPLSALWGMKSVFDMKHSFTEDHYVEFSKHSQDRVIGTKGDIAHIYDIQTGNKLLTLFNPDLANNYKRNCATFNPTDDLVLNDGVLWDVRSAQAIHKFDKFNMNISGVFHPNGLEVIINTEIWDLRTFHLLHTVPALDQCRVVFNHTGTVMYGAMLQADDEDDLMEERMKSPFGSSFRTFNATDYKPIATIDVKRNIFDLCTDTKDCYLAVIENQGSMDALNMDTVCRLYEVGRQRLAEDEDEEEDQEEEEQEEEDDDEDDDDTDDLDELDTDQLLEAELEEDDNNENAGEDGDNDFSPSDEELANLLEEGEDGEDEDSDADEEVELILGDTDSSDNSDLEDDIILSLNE
# WDR5: WD repeat-containing protein 5 (WDR5, Homo sapiens, UniProt P61964)
target,temperature,SYPRO Orange fluorescence [a.u.]
DCAF1,65.41 °C,56300
WDR5,75.01 °C,11100
DCAF1,34.6 °C,8740
DCAF1,60.21 °C,38900
DCAF1,94.21 °C,30700
WDR5,51.6 °C,14400
DCAF1,91.01 °C,34100
DCAF1,56.81 °C,24300
DCAF1,54.81 °C,19100
WDR5,67.01 °C,7040
WDR5,40 °C,14200

# Some of these lines once more (block 2):
target,observed,technique,tested at,remaining binding [%]
"MAPK7 (Homo sapiens, UniProt Q13164)",binding,competition with immobilised ligand,1 µM,100
"MUSK (Homo sapiens, UniProt O15146)",binding,competition with immobilised ligand,1 µM,92
"PRKX (Homo sapiens, UniProt P51817)",binding,competition with immobilised ligand,1 µM,89
"NEK10 (Homo sapiens, UniProt Q6ZWH5)",binding,competition with immobilised ligand,1 µM,93
